Results gathered from unrelated publications.
Parts stem from different laboratories: compare values within a part only. Changes are numbered by the printed parent chain.

Block 1
Molecule: PhoQ, residues 284 288 289 292 302 303 TTCLQL
Technique: Sort-seq
Measured: YFP reporter
Sample: E. coli
Setting: PhoQ-PhoP variant library
Together with: 10 µM Mg2+
Reference: high Mg2+ state
Direction: higher = stronger signaling
Endpoint: fold induction
PhoP, residues 12 14 15 18 19 SHWTV (Escherichia coli, UniProt P23836): 13.3
PhoP, residues 12 14 15 18 19 QYCSL (Escherichia coli, UniProt P23836): 2.71
PhoP, residues 12 14 15 18 19 STHWV (Escherichia coli, UniProt P23836): 9.88

Block 2
Target: RNA binding protein fox-1 homolog 2, RRM domain, GST-SBP tag (RBFOX2, Homo sapiens, UniProt O43251-10, residues 100-194)
Technique: RNA Bind-n-Seq
Form: RNA
Sample: in vitro
Tested at: 365 nM
Setting: natural RNA segment, single round, ends assumed
Reference: no-protein control
Direction: higher = stronger binding
Endpoint: RBNS enrichment (R)
All sequences stand within: GGGAGUUCUACAGUCCGACGAUC … UGGAAUUCUCGGGUGCCAA
Construct (chain): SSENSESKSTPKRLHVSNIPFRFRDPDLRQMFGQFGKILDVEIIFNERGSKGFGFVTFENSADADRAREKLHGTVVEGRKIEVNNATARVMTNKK
CUUUGGCUUACCCCGUGCUCCUGGGUUCUAUGGUGUUUCUAUAAUUAUGAAUAGUGUUGCACUGUAAUCUAUCAUAUAGAGCUAUAUGUAUGGAAAUUUUUGAUCAGUUU: 0.501
CCUCUGCAGAGGCUGCUGAAGAAGAGUGGGUCAGCUGCAUCCUGGCUGAACCUUUAAUAGGGGACCCUGGGGACCCAGCAGUAGCACGAGGGCUGCACACACAGGGCGGC: 7.68
UAGGGUCUCCCCUUUACCCUCUCUCCUUAUUUAUUCUUGCCCCUCUGCUAUUAUUCCUUGCUGUUUAUAGUGCUUUUGUGUAGUAAAUGCUCACUCCCCAAGCUUUAUGG: 1.4
ACAUAUGUGCAGAAGGUUACUACCUAGGGUUUAUGCUUAAUUUUAAUUGGAGGAAAUGAAUGCUGAUUGUAACGGAGUUAAUUUUAUUGAUAAUAAAUUAUACACUAUGA: 2.64
ACUGUUUCCCCACCACAGAUGUCCUGAGAUUCAGUUAAAACGAAACAUGCUGCAUCUCCAGAGAUGUGCCAAGCCAAGGAGAAUGCUAGAAGCAGAGUAAAGCUUACCCC: 0.448
UUCGUUAUUGCCUUUUUUGAGAUGUAUGUAUCUGUAUCUACCUAUAUCUAUAUGUGUGUAUACAUAUAUAAUAUAUACACACAGAUACAAGUGUACACACACACACCACA: 0.352
GCAGAUACCCCAAACAUACUAUGAUAAAAUCAAAUUGUGCUACUUUUGACCCAUGUAAUUUACCUAAAAGUUGUAAUUGCUGACAGAGUACUGCCUUGAAUUUUGGUUUA: 0.471
AGUGUAAUAUUUCUAACGGUGACUUUGACCUAUUCUGUAGUACAACUGUAAUAGCUAUUGGUCUUCAAGUGGGUUUAGAUUUGGUGACAUCAGUUUGAUAUUCUCUUAAA: 0.427
AAAACAGCUUCAAAAUAUGCAGCAAAAACCAAUACAACAAAACGAGUGGCACGAUUUAUUUCAAACUAGGCCAGCUGGGAUUCCAGCUUUUCUUCUACUAGUCUGAUGUU: 1.04
UCACGUUUUGCAGAAAACACCGUAAGAAACACUUCAGUCUUUCUGUAGUUUCCAUGCAUAUUUCACCAUGGUUCGCACUCUGAUCCUCAUCUGGUUUAGAAAGCAAUUCA: 0.971
CAGUGUCUGUAGGAGUCGGCCUCACAAGCUGAUGAAGCAGCUGUACGCCUAGUAGAGCUCGGUGGUGACGCUCCCUUACUCUUAGAUGAAUCAGUAGCUGUGAAAAUAAC: 0.31
UCUCUUUGCAUGCCAUGUGUAAUAUACCUAGCCAAAACCAGAUGCGGUGACUUUCUUUUUUUGUAAAGCAAAUUACUUAAGAAAAUACAAUUCACUUGAAUUUGACAAAC: 3.55

Block 3
Target: Prothrombin, mature alpha-thrombin (F2, Homo sapiens, UniProt P00734)
Technique: aptamer microarray, sandwich
Form: DNA with 2'F-ANA
Sample: in vitro
Tested at: 200 nM
Setting: whole 15-mer aptamer, many near background
Together with: Cy3 exosite-II aptamer, 400 nM
Direction: higher = stronger binding
Endpoint: mean fluorescence intensity
Oligonucleotide: GGTTGGTGTGGTTGG
2'F-ANA at 2 4 5 7 8 11 12 13: 82.9 a.u.
2'F-ANA at 1 2 3 4 5 7: 66.8 a.u.
2'F-ANA at 2 4 6 8 10 12 13 14 15: 65.5 a.u.
2'F-ANA at 1 2 5 10 12 13: 47.2 a.u.
2'F-ANA at 1 3 5 6 7 8 10 12 15: 48 a.u.
2'F-ANA at 2 3 4 5 7 8 11 12 13 14 15: 54.6 a.u.
2'F-ANA at 2 3 4 6 10 11 12 13 15: 208 a.u.
2'F-ANA at 2 10 11: 121 a.u.
2'F-ANA at 3 4 5 7 8 12 13 14: 107 a.u.
2'F-ANA at 1 3 4 5 6 12 15: 113 a.u.
2'F-ANA at 2 3 6 12 13: 922 a.u.
2'F-ANA at 2 5 7 9 10 13 15: 47.1 a.u.
2'F-ANA at 3 4 9 12 14 15: 366 a.u.
2'F-ANA at 1 6 8 11 12 13: 293 a.u.
2'F-ANA at 1 4 9 10 11 13 14: 46.1 a.u.

Block 4
Target: CCNB1, cyclin fold, Cln2 fusion (human)
Technique: yeast growth competition, sequencing
Sample: yeast
Setting: strong parent motif
Reference: not given
Direction: higher = stronger binding
Endpoint: normalised enrichment score
Parent: PKN2 docking peptide (human); VSAVRKLDFSDTM; partner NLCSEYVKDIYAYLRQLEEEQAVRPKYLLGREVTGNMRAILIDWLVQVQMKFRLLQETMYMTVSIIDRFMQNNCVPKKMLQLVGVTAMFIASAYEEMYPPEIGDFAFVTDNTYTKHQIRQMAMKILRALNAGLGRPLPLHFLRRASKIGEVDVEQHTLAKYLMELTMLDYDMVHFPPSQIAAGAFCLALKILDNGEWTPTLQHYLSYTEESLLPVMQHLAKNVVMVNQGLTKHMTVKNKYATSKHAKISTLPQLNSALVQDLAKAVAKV
K6A: 2.48
L7F: -0.206
S10N: 3.69
T12E: 4.67
S2H: 3
S2N: 4.07
A3K: 0.624
A3P: 2.55
T12K: 3.64
D8M: 1.24
F9R: 0.266
D8W: 1.57
K6C: 3.2
S2D: 3.79
D11M: 2.34
